# Assay results pooled from the literature.
# Parts stem from different laboratories: compare values within a part only.

# Study 1 — method: RNA Bind-n-Seq; molecule type: RNA; matrix: in vitro; tested at: 1 µM; notes: whole 134-nt RNA, ends assumed; with: 150 mM KCl; relative to: input library; direction: higher = stronger binding
# Target: Ras GTPase-activating protein-binding protein 1, RRM domain (G3BP1, Homo sapiens, UniProt Q13283)
# Chain of UniProt Q13283 (whole entry, looked up): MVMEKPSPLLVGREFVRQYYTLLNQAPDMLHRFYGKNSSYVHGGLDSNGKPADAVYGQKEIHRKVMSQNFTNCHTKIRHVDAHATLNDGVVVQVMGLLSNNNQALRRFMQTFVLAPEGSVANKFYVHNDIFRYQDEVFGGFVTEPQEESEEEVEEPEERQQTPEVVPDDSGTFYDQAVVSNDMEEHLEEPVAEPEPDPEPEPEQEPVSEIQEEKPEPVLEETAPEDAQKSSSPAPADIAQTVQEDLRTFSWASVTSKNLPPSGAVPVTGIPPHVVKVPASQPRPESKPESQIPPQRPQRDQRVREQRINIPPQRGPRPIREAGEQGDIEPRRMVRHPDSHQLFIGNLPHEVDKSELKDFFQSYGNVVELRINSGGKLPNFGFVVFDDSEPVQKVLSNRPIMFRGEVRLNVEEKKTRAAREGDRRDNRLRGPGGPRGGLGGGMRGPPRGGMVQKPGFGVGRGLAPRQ
Oligonucleotide,log2 enrichment
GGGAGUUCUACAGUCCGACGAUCAAGUCCUGUGCUACACAUCGUAUGUACCGAAUCGGGUUUGGGAAAGGGUUUUUGGGAAAGUAUUAUGUUACGCCGUUCGGAUCUGCACUUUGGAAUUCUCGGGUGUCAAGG,0.719
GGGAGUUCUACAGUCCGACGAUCCACAGACAACACGCACCCACACAGACACAGAGGGAAAGGGUUGGGAUGGGGACAGGGUGCACAGCAGGGCGGGGUAGGACCCCAGCCCCUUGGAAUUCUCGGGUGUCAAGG,-0.132
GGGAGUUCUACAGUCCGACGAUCCCUGUGCUACACAUCGUAUGUACCGAAUCGGGGUGGGGUUUUUUUGGGGUUUUUUUGGGGAAAGUAUUAUGUUACGCCGUUCGGAUCUGCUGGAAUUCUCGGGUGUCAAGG,0.444
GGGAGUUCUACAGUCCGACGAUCUCCUGUGCUACACAUCGUAUGUACCGAAUCGGGGUUUUUGGGGAAAGGGGAAAAAGGGGAAAGUAUUAUGUUACGCCGUUCGGAUCUGCAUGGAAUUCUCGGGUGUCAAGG,0.821
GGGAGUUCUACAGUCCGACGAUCUGGCCCUGGUGGCAUGCGGGGAGGAAGAGGUGGCCUCAUGGAUCGUGGUGGUCCCGCUGGAAUGUUCAGAGGUGGCCGUGGUGGAGACAGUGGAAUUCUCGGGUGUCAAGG,0.963
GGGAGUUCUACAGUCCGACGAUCCUCAAGUCCUGUGCUACACAUCGUAUGUACCGAAUCGGAGGAGGAAAAAAAGGAAAGUAUUAUGUUACGCCGUUCGGAUCUGCACUUCCAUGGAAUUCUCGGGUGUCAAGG,-0.136
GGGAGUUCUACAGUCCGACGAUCUAACUUUAGAGGAGGAUCUGAUGGAUAUGGCAGUGGACGUGGAUUUGGGGAGGGCUAUAAUGGGUAUGGAGGAGGACCUGGAGGUGGCAAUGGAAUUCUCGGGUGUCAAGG,-0.178
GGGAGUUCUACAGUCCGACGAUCGUCCUGUGCUACACAUCGUAUGUACCGAAUCGGGCCCCCCGGGCCCCCCGGCCCCCCGGAAAGUAUUAUGUUACGCCGUUCGGAUCUGCAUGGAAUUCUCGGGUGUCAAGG,-0.368
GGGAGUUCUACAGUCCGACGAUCUAGGUAAGAAAGUACUCAUUGUCUAUGCACACCAGGAACCCAAGUCUUUCAACGGAUCCUUGAAGAAUGUGGCUGUAGAUGAACUGAGCAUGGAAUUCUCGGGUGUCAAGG,-0.0549
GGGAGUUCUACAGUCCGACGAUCGUCCUGUGCUACACAUCGUAUGUACCGAAUCGGUUUUUGGAAAAAAAGGAAAAAAAGGAAAGUAUUAUGUUACGCCGUUCGGAUCUGCACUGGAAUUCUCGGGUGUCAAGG,-0.131

# Study 2 — method: RNA Bind-n-Seq; molecule type: RNA; matrix: in vitro; tested at: 365 nM; relative to: no-protein control; direction: higher = stronger binding
# Target: RNA binding protein fox-1 homolog 2, RRM domain, GST-SBP tag (RBFOX2, Homo sapiens, UniProt O43251-10, residues 100-194)
# Notes: natural RNA segment, single round, ends assumed
# Target sequence (chain): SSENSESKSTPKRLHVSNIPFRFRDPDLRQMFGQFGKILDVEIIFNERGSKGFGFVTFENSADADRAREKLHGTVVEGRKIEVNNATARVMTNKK
Oligonucleotide,RBNS enrichment (R)
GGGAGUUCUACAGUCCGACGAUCACAGGAGUGAGGCCCUCAUGGAGAACCUCUGUUAAGGCAAUGUGGAAGGGGAAGCCCCCACACAGAGACCCCACUGGGACACUGCCUAGUAGAGCUGUCAGAAGAAGGCCUGGAAUUCUCGGGUGCCAA,0.34
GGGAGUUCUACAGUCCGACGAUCAGAUUUGCCCAUCAGGGGAAAAGAAAUGGGGUUAUAUCCAUUAGGAAAAUCCCAUUUUAUAGAUAGAGGUGCAAUCACAUAAAAAUGUGGCCAGGCAGGAUUAAAGGUAUUGGAAUUCUCGGGUGCCAA,0.662
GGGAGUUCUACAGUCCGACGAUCCCCCAAUCGAUGCUCUCAGGGUCAUCUCGGGGAUCACAGGGAUCCUUAAAUCUCCAUUCUGUUUGUGGUUGCCCCCUCAACCUCCCCUACACCCUUCCUAUUCUUUUUCAUGGAAUUCUCGGGUGCCAA,0.304
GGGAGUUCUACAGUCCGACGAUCCACUGAACAUUCAUCAGGGAACUUUCCUCAAGUCUAACUGCUGUGUUUGUGAGAAGAGCAGAAUCACGGAGACGCAAUCCUGACCACUGACUACAAGAGGAGCAACCCAGUGGAAUUCUCGGGUGCCAA,0.619
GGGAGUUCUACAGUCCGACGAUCAUGAGAGGCGGGGACCGUGCAGCUGUCGGCUGAUGAGGAGGCGGCCGCCCCAGUGCUGAUGGAGAUGCCACUUUCGUGUGACUGCGAACAUUAAAGCACAAAAAAAUCCAUGGAAUUCUCGGGUGCCAA,0.826
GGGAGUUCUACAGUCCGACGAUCUUGGUUCUUUUUUCCUUUUUUAGGAAAAACAAAACAACAGACUUCAUCCUUAGGUUUUCUCAAGAUUUAAGUGAACACAUUUACACAUAUCAAUUUCUUAAAGAACACAAUGGAAUUCUCGGGUGCCAA,0.426
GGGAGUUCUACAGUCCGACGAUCGAGACGGACCUCAGUGUGUUUUAUAUUGUCUGGUGUUAAGAUGAUAAAUUACUUUGUGAUUACAAGCAAAUUUUCUAUUUGACAAAGCCCUUGGUGGAGUCCAAAUGAUUUGGAAUUCUCGGGUGCCAA,0.666
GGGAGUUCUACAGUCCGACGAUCAGCUGGCUGUAAUGCCUUAUCUCUUCUGGAAAGACGCUGGCUCAGACCGUGGAUUUGGCUUAGCACUGUUAAGCAUACAGGUAUCUACAGGCCUGGUGUGGUUUGUUCUGUGGAAUUCUCGGGUGCCAA,0.375
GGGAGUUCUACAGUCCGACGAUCGUAACUUGAUCCUCCCGAGCUGUGAGCGCAGUCUGAGGUGUGAGGACACGGCCUCCUGUUGGAGUCCCAUUUUCUCCAUCAGGGCACGUGGGCGGCUUCCUCAAGCCCGGUGGAAUUCUCGGGUGCCAA,1.22
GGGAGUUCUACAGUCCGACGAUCGUUCUUGCGGUUUCUUCCAUUGCUUCUAGGCAGAGCCAAGGACUCAUCCUCACCAUCCAUACAUGGGAGAUAUUUAAAGUUUCUAAAGUCGAUCCCACCAGCCCUCGAUGUGGAAUUCUCGGGUGCCAA,0.571
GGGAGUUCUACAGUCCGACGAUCCUUUCAAACAGCGCCUCCACCUGGCCUACUCUGUUAUUUCCACCUGUUUGGGUAGGGCCAUUUAACUUCCAUUAUGCCAAACUUGGGAUGGGAUUUUCGAAGCAGACAACUGGAAUUCUCGGGUGCCAA,0.325
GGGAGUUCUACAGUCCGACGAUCUCAUUGGCUUCUAGAAAUCAGAUGCCCAGAUGAUCCAAGACUAGUUUGUUAUCUCAUCUGGAACCUACACCAAGAGAUGCAGUCAGCAUCUUAAAGUAAAUGUUCAUGGAUGGAAUUCUCGGGUGCCAA,0.287

# Study 3 — method: protein binding microarray; molecule type: double-stranded DNA, one strand shown; matrix: in vitro; tested at: not given; relative to: not given; direction: higher = stronger binding
# Target: Histone acetyltransferase KAT6A, winged helix 1, GST fusion (KAT6A, Homo sapiens, UniProt Q92794, residues 1-85)
# Notes: 8-mer, flanks averaged, mean of 2 arrays, mostly near background
# Construct (chain): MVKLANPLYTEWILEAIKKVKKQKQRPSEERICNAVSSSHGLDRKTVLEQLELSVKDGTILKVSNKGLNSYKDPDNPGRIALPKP
Oligonucleotide,E-score
CTGTGTAA,-0.144
TGCGACAA,-0.0171
TAGGGTAA,-0.158
CTGCTTGC,-0.016
AGACAAGA,-0.0425
ACAGACAA,-0.0885
ATCGCTGA,0.0117
TCGTGGAA,-0.0902
AACTGGTA,-0.188
CACACCCA,-0.165
CAGTACGG,0.239
CCTAATGA,-0.148
GTTGCTCA,-0.262
CAGGTCGA,-0.224
CGGAGGTA,-0.0499
AACCGACA,-0.0462
GGCTTAAC,-0.0343
AAGCAGTA,-0.0375
CAGGCCAG,-0.0818
CAAAGTCC,-0.117
GTGCAATA,-0.0985
GTTACGAA,-0.0316
AGGCTCCC,-0.0221
AGGGGTAC,-0.137
CCGACTGA,0.0278

# Study 4 — method: RNA Bind-n-Seq; molecule type: RNA; matrix: in vitro; tested at: 100 nM; relative to: input RNA pool; direction: higher = stronger binding
# Target: RING finger protein unkempt homolog, zinc fingers 1-6, SBP tag (UNK, Homo sapiens, UniProt Q9C0B0, residues 30-357)
# Chain of UniProt Q9C0B0 (30-357, looked up): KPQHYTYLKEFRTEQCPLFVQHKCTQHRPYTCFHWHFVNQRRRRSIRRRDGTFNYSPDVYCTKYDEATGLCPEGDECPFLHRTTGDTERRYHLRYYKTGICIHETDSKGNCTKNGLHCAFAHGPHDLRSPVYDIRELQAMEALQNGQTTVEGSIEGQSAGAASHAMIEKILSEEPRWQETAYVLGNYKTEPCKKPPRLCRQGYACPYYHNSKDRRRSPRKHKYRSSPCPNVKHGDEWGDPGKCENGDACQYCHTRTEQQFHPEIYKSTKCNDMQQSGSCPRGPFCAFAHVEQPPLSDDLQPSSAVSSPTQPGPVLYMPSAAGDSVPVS
# Notes: RNA with constant flanks, vertebrate orthologous sites, ends assumed
Oligonucleotide,bound/input enrichment [ratio]
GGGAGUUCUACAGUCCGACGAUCGUGACUUUGGAUGCCCGCAGAUACAGGCUGCGUUGAGUGCUAGGUUCCGUGUUUGCCAAGUUUGUUCUCUCUUUCCGCACCUGAGGCGUCUACCGCAAACAUGCUCCGCCAGAUCAUCAGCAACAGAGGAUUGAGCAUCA,0.278
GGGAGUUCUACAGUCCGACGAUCAUUCAAACCUGUGGUACCCUGGCCUCAUGUUGAAGGAGUAGAAGUGGACUUAGAAUCUAUUAGAAGAAAACACAAGGCCAAAAAUGAACAAGAGCACCAUGCUGGAGGAGAGAACCAGAGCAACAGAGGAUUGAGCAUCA,0.558
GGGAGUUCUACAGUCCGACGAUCGGUCUAGUUAGGGAUACCUUUUAAUUUAUUUUAAUAAAGUACUGAAAUGCUGAAAAUCAUUAGUACUAAGUUUAGUUGGACAAGUGAGGUAAGUUUCUUUUCGACAGCUCCAAAGUAAACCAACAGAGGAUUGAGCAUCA,0.771
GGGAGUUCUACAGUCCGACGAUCGUGACUUUGGACGUCCGUUCAUGCUUGGUGUAGGGACUGCUUAGUGCCGGGCCUUGCAGUUUUGAUCUUUUCUUUUCGAGCCGAGGCCUCUGCUGCAGCCAUGUUACGCCAGAUCUUCGGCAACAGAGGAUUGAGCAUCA,0.25
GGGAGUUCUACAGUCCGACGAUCCCUGUAAUAAUAAACCAAUUUUUUUUUCUUAAUGUCAAUGUAGAAUUCUUUUGCCCUGUAUCAAAAAUAGAGGUUUCAAAGCAAGUGAUUUGGAGUGUGCAAAUGAGUUUUCACAUGUUACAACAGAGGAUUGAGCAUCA,0.896
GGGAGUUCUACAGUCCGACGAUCAGUCUCGGGAGAGGAUUAGGUUCGAUCCUUUACGUGUUAAAAAAGAAAGCAUAAAAACAUUAGAAAAAUUCAGCAAACCAUUUUUAAAGUAGAAGAGGGUUUUAGGUAGAAAAACGUAUUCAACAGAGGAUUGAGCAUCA,1.52
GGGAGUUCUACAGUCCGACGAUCAGAACAUCUUAACCAAGAAUCUGAAAGUAGAAGUACAGGACCAUGGUUAUCUUCUUCACUUAGAAAUAGAUGCACACCCUUGUUCUCUAGAAGGAGACGAGAGGGACGAGAUGAAUCUUCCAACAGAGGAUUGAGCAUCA,0.401
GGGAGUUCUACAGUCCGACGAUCUGUCUGCCUCAUUCUAAAAUUUACACAGUAGACCAUUUGUCAUCCAUGCUGUCCCACAAAUAGUUUUUGUUUACGAUUUAUGACAGGUUUAUGUUACUUCUAUUUGAAUUUCUAUAUUUCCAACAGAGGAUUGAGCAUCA,1.15
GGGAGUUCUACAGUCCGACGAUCAGCUAAAAGGAGUUAGCAUCUUUAUUUUUGUAUCAAAGAUAAAGAUUAUUUUGAAACUAUUGGGAUUUUUACACAGCUCUGAAAUCUGUUGCUUUUGUAAACAAGUUGUUUGAUCUUGGGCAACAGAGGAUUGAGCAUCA,0.657
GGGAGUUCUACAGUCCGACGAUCCCUUUCAGACUGUCCCCGGCCAGAGCCAAGGACCUCACUUGUUUCAUCAAGAACCUGCAUUUAAAACAACUUUUUAAACUGUUAAAACAGGAAGAGAUGUGACUAAAACACCACCUCAAACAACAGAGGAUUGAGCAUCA,0.212
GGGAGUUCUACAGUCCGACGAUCAGAAAAUUUUAAUCAAGAAUCUGAAGGCAGAAAUACAGGACCAUGGUUAUCUUCCUCACUUAGAAAUAGAUGCACACCUUUGUUCUCUAGAAGGAGGCGAGAGGGAAGAGAUGAAUCUUCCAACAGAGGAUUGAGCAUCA,0.987

# Repeated from above (study 3):
Oligonucleotide,E-score
CAGGTCGA,-0.224
CGGAGGTA,-0.0499
AACCGACA,-0.0462
GGCTTAAC,-0.0343
AAGCAGTA,-0.0375
